# Assay results gathered from unrelated publications.
# Every numbered part comes from another study and shows a few of its results, in no order.

# Sample 1 — method: protein binding microarray; molecule type: double-stranded DNA, one strand shown; matrix: in vitro; tested at: not given; baseline: not given; direction: higher = stronger binding
# Target: Histone acetyltransferase KAT6A, winged helix 1, GST fusion (KAT6A, Homo sapiens, UniProt Q92794, residues 1-85)
# Notes: 8-mer, flanks averaged, mean of 2 arrays, mostly near background
# Target sequence (chain): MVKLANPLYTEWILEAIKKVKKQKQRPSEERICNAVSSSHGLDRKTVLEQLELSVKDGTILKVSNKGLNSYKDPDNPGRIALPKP
Oligonucleotide,E-score
CCCGTTCA,0.107
ATTCTTCG,-0.0575
GTGCGATA,0.0763
AATTGAAT,-0.119
AGGGGGAG,-0.0956
AATAGATC,-0.104
GTATCCAA,-0.203
GACCCAGC,-0.0748
CCGAGTAA,0.0249
GGGGCAAA,0.102
CCAACACC,-0.222
CAGGATAG,-0.0881
ACATAAGC,0.0648
ACGTGAGG,-0.178
AACGGCTG,0.148
GTATCCTA,-0.0725
GAGCACGC,0.0686
AGACCGAA,-0.0729
ACCGTTAG,0.103
TAGCCAGA,-0.103
AGACTTTA,-0.196
AGGTTAAT,-0.146
GACCATGA,-0.0734

# Sample 2 — method: RNA Bind-n-Seq; molecule type: RNA; matrix: in vitro; tested at: 365 nM; baseline: no-protein control; direction: higher = stronger binding
# Target: RNA binding protein fox-1 homolog 2, RRM domain, GST-SBP tag (RBFOX2, Homo sapiens, UniProt O43251-10, residues 100-194)
# Notes: natural RNA segment, single round, ends assumed
# Construct (chain): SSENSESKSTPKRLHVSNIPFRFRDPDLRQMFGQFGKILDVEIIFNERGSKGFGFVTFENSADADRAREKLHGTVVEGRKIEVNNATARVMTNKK
Oligonucleotide,RBNS enrichment (R)
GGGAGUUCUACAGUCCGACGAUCCAGGGCACCCCUCAAGGACUGCCCCCGAUAGCUCUACUGUUCCCUUGGCCACGAAGGUGCCCCCCUCCCAGAUGCCCUGGCCCUAGGCCUGACUCCGGCCAGGAGGGUCAUGGAAUUCUCGGGUGCCAA,0.251
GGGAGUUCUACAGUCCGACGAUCUGUCAGCAUUUCGGUCUGCAUAUCUGUGUGUCCGUAUCUGCGUUUGUGUGCGUGUACGUGUGCCCCUGUGUGUGGGCCCAGUUUUCAGGCAUGUAGAAUAAGCAUGGAGUUGGAAUUCUCGGGUGCCAA,1.83
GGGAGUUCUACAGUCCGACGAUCCGUUGUGUGCUCAGUGUUUUCUCAUAGGCACCAGGGACAGGCUUCUCAAGGCAGUAUGAUAUACCCUAGUCUUUGGUGCCUCUAGUAUAUGUGACCAGGUGUCGUCCUGCUGGAAUUCUCGGGUGCCAA,0.482
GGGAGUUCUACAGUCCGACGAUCACCUUUUGUAUUUAAUUUUAAAGUCAGUGUACUGCAAGGAAGCUGGAUGCAAGAUAGAUACUAUAUUAAACUGUACUGUUAUUUAAGAUGUAAUAAAGCAGUUUGACAUGUGGAAUUCUCGGGUGCCAA,0.269
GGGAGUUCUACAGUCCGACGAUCCACGAGAUUCACUCAUUGGAUUUAUGCAGUGCCCUGUCUGUAUAAAAACUCUUAAGAGUUCCUUUAUAUCAUAUUCUUCAGAGCCAACAUUUGUCCUCAAAGCAACGUUUUGGAAUUCUCGGGUGCCAA,0.353
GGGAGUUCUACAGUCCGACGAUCCCAGCACCAAGCAAGUGCCUGGCACAUAGUCUGUGCCCUUAACAUUUGUAGAAAGGAGCUCACCAGCUCUGUCAGUGUUUAGUUUCUUCAUCUAUUAAACAGGGUUGGUUUGGAAUUCUCGGGUGCCAA,0.327
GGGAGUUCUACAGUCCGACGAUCUGGUGAACGCCUGGGACCAAGCCAUGUGGCGUUUUUUAUUUUGCCUUUCUGGAAGACUCAAGAUAUGUCUCUUCAUUCUCUCUCAGUAUUUGUUUACUUUGGUUUUUUUGUGGAAUUCUCGGGUGCCAA,0.546
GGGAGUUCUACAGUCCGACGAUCAGGUCCUCAUCUCCGUCUUGCAGGUGUUCUGAACUCUCCUUUGGCUAGUCUCUGAUUUUUGAGUCUGGCGGAGGCCUCUUGACCAUGCUGCCCAUGCUGUCUACUGUGCCUGGAAUUCUCGGGUGCCAA,0.29

# Sample 3 — method: RNA Bind-n-Seq; molecule type: RNA; matrix: in vitro; tested at: 200 nM; notes: whole 134-nt RNA, ends assumed; added: 150 mM KCl; baseline: input library; direction: higher = stronger binding
# Target: Fragile X messenger ribonucleoprotein 1, C-terminal low-complexity region (Fmr1, Mus musculus, UniProt P35922)
Oligonucleotide,log2 enrichment
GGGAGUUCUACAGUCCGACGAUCAGUCCUGUGCUACACAUCGUAUGUACCGAAUCGGGUUUUUGGGAAAGGGUUUUUGGGAAAGUAUUAUGUUACGCCGUUCGGAUCUGCACUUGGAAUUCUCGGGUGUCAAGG,0.241
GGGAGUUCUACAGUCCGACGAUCUCCUGUGCUACACAUCGUAUGUACCGAAUCAAAGUGUGUGUGUAAAGUGUGUGUGUAAAAAAGUAUUAUGUUACGCCGUUCGGAUCUGCAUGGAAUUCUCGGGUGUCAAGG,-0.102
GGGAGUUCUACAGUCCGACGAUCCAAGUCCUGUGCUACACAUCGUAUGUACCGAAUCGGAAAAGGGAAAAGGAAAAGGAAAGUAUUAUGUUACGCCGUUCGGAUCUGCACUUCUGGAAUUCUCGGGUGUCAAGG,-0.617
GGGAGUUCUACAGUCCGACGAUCUCCUGUGCUACACAUCGUAUGUACCGAAUCGGUUUUUUUGGUUUUUUUGGUUUUUUUGGGAAAGUAUUAUGUUACGCCGUUCGGAUCUGCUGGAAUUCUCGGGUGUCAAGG,-0.123
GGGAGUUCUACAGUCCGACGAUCCUGUGCUACACAUCGUAUGUACCGAAUCGGAAAAAAAGGGGAAAAAAAGGGAAAAAAAGGGAAAGUAUUAUGUUACGCCGUUCGGAUCUGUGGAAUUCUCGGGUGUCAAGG,-1.04
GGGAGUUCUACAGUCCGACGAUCUUAUCACCAGGACUGCCAUGUUCCCAGGGCUCCAGCCCCUGGAGAGGGAGAGGGCACAUCCUGGGUAUGCCGCCAGUGUGUCUUUGCGAUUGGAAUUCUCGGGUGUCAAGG,-0.87
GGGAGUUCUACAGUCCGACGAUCCAAGUCCUGUGCUACACAUCGUAUGUACCGAAUCGGUUUGGAAAGGUUUUUUUGGAAAGUAUUAUGUUACGCCGUUCGGAUCUGCACUUCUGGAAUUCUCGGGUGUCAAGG,-0.678
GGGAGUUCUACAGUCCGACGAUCUAACUUUAGAGGAGGAUCUGAUGGAUAUGGCAUUGGACGUGGAUUUGGGGAUGGCUAUAAUGGGUAUGGAGGAGGACCUGGAGGUGGCAAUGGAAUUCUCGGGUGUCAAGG,0.406
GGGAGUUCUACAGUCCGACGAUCUCCUGUGCUACACAUCGUAUGUACCGAAUCGGGGUUUUUUGGGUUUUUUGGUUUUUUGGAAAGUAUUAUGUUACGCCGUUCGGAUCUGCAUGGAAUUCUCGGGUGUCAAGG,-0.001

# Sample 4 — method: protein-binding microarray; molecule type: double-stranded DNA, one strand shown; matrix: in vitro; tested at: 2540 nM top; notes: 60-bp whole probe; added: salmon DNA 0.4 mg/ml; baseline: random background probes; direction: higher = stronger binding; constant ends, left off below: GCCTAGCAC … GTCTTGATTCGCTTGACGCTGCTG
# Target: Interferon regulatory factor 3, full length, phosphomimetic (IRF3, Homo sapiens, UniProt Q14653, residues 1-427, S386D/S396D/S398D/S402D/T404D/S405D)
# Target sequence (chain): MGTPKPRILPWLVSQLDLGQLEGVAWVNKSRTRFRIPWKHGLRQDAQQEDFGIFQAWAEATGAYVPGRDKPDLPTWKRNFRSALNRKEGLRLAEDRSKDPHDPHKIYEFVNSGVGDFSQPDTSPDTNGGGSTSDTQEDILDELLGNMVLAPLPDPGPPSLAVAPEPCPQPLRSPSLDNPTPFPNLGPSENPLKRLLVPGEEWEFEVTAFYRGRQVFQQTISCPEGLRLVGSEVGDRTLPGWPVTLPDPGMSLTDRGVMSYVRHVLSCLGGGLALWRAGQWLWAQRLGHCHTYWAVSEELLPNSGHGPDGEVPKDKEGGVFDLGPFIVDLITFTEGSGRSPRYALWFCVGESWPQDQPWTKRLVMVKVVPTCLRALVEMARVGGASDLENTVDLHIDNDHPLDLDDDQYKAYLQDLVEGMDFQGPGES
Oligonucleotide,fitted relative affinity
GACGGTTGCCTTATCCTGACGTGCTAG,3.44 z-score
GACTATTCCAGTTTCGAGACGTGCTAG,2.98 z-score
TCATCTCTAGAAATTCCCACTGTGCTA,0.675 z-score
TTAAATTTCAGTATCGATTAGTGCTAG,2.87 z-score
TAGGCTCCAGGTTCTCTGAAGGTGCTA,-0.408 z-score
TTAGATATCGGGACTGGATAAGTGCTA,0.0588 z-score
TCACCTTTCAATCCTAGACTGTGCTAG,2.67 z-score
GACGCACTGCTTCTCCTGACGTGCTAG,-0.353 z-score
GCCGGTTTCGGTATCGGGACGTGCTAG,8.46 z-score
TTAGGAATCGGACTGGGTTAGTGCTAG,-0.332 z-score
AGAATTTCCACTTTGACTTAGTGCTAG,2.02 z-score
TTAGGTTTCGGTCTCGATTAGTGCTAG,8.39 z-score
TCAGGACTGGACTTTCGGTTAGTGCTA,1.26 z-score
TTAGGACTGGTTCTCCTTTAGTGCTAG,0.713 z-score
CTAGATATCAGACTGGATTAGTGCTAG,0.348 z-score
CGGATGATCTCTCTGGGCAAGTGCTAG,0.0102 z-score
TTAGGTTTCGGTCACGGTTAGTGCTAG,4.85 z-score
TCAGTGTTCTTTTCTGTTACTGTGCTA,2.06 z-score
CCTCCCCTTGCTTTCCAATTGTGCTAG,1.53 z-score

# Excerpt of the above (sample 1):
Oligonucleotide,E-score
CCGAGTAA,0.0249
GAGCACGC,0.0686
AGGGGGAG,-0.0956
AACGGCTG,0.148
AGGTTAAT,-0.146
CCCGTTCA,0.107
GACCATGA,-0.0734
